Measured values of several laboratories.
Protocols differ between the studies behind these lines. ± marks the error that the study gave.
UniProt O94768, sequence (whole entry, looked up): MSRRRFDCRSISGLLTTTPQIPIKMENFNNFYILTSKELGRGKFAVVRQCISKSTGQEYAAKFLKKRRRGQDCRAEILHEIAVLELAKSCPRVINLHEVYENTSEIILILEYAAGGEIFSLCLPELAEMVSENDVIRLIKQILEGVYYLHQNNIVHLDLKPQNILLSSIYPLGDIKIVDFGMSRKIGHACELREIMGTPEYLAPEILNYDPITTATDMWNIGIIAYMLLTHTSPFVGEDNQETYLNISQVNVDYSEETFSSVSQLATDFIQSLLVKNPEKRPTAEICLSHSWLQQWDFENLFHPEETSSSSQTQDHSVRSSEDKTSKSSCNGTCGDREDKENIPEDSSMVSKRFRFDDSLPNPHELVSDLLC

| Structure (SMILES) | tested on | assay | test system | setting | scale | measurement | result |
| --- | --- | --- | --- | --- | --- | --- | --- |
| CN(C)C1(CNC(=O)c2ccc3c(c2)CCN3C(=O)c2ccccc2)CCOCC1 | – | – | male C57BL/6 mice | intraperitoneal, 50 mg/kg, 120 min | – | unbound brain concentration | 42.3 nM |
| O=S(=O)(Nc1ccccc1)c1ccc(NC(=S)Nc2ccccc2)cc1 | – | – | male mice, heart | oral, 5 mg/kg daily 14 days | relative to: body weight | relative organ weight | 0.48% |
| CCc1ccc(CC/C=C/c2ccc3c(c2)C(=O)CC3)cc1 | – | – | Sprague-Dawley rat, female, serum | oral, 450 mg/kg/day, 14 days | – | total bilirubin | 1.01 µM |
| CC(C)C[C@@H](NC(=O)[C@H](Cc1ccccc1)NC(=O)CNC(=O)[C@@H](C)NC(=O)[C@H](Cc1ccc(O)cc1)NC(=O)[C@@H]1CCCN1C(=O)[C@@H]1CCCN1C(=O)c1ccc[n+](C)c1)C(=O)O | – | – | rat striatum homogenate | 100 µM, pH 7.4, 37 °C | – | half-life | 12 min |
| CC(C)n1c(C2CCNCC2)nc2c([N+](=O)[O-])c(Br)c(Br)cc21 | – | measured: Sepsis | AML patients | 125 mg | – | adverse events causing interruption | 4% |
| C[C@@H](NC(=O)N1C(=O)[C@H](Cc2ccnc(N)c2)[C@H]1C(=O)O)C1CCCCC1 | – | – | healthy adult Chinese volunteers | continuous intravenous infusion, 1.0 mg/kg/h, 5-day infusion, CTCAE 5.0 grading | – | incidence of AEs excluding prolonged aPTT | 37.5% |
| COc1ccc2nc3cc(Cl)ccc3c(Nc3cc(CN4CCCC4)c(O)c(CN4CCCC4)c3)c2n1 | – | – | mouse, blood | intraperitoneal, 28 mg/kg | – | monocyte count | 0.2 10⁹/L |
| O=C(c1ccc(F)c(F)c1Nc1ccc(I)cc1F)N1CC(O)([C@@H]2CCCCN2)C1 | – | – | human patients | oral, dose not given, dose escalation, suspension | – | AE causing dose modification | 46% |
| O=C1Nc2cc3[nH]nc(-c4ccncc4)c3cc2CN1Cc1ccccc1 | – | measured: Anemia | patients with advanced solid tumours | intravenous, dose not given | – | patients with grade ≥3 TEAE | 7% |
| NCCCC[C@@H]1NC(=O)[C@@H](Cc2c[nH]c3ccccc23)NC(=O)[C@H](c2ccccc2)NC(=O)[C@@H]2C[C@@H](OC(=O)NCCN)CN2C(=O)[C@H](Cc2ccccc2)NC(=O)[C@H](Cc2ccc(OCc3ccccc3)cc2)NC1=O | – | – | healthy volunteers, male | 600 µg twice daily, 2.0 h, post hoc | – | placebo-corrected QTcF change | 12.4 ms |
| Cn1ncc(-c2nc(N[C@H]3CC[C@H](N)CC3)ncc2Cl)c1CC1CC1 | – | HPLC-MS/MS | patients, plasma | oral, 21 mg, day 5 | – | Cmax | 130 ng/mL |
| COc1ccc(C[C@@H]2NC(=O)[C@H]([C@@H](C)O)NC(=O)[C@@H]3[C@@H]4CCN3C(=O)[C@@H]3Cc5cn(c6ccc(F)cc56)CCCCCCN(Cc5ccc(cc5)CCNC(=O)[C@]5(C)CCCN5C2=O)C(=O)CCC(=O)N[C@@H](C)C(=O)N[C@H](CNC(=O)CCCCC[N+](C)(C)C)C(=O)N[C@@H](Cc2cccc(c2)CNC(=O)CO4)C(=O)N3)cc1 | – | measured: Flushing | humans | concentration not given, Study-003 | – | participants with adverse event | 3.2% |
| O=C(O)C(F)(F)C(F)(F)C(F)(F)C(F)(F)C(F)(F)C(F)(F)C(F)(F)F | – | – | human, plasma | oral, 50 mg | – | Vd | 0.08 L/kg |
| CC1(C)NC(=O)N(c2ccc(F)c(CC(F)(F)F)c2)C1=O | – | – | Schistosoma mansoni-infected NMRI mice | 10 mg/kg | – | toxicity | not toxic |
| COc1cc2c(Oc3ccc4[nH]c(C)cc4c3F)ccnc2cc1OCC1(N)CC1 | – | – | paediatric recurrent refractory sarcoma | 10 mg | – | grade 1 or 2 Neutropenia | 0% |
| O=C(Nc1ccccc1)C1CCN(C(=O)Oc2cccnc2)CC1 | – | Bond-Lader VAS | healthy women | 100 mg | relative to: pre-dose baseline, direction not given | change in well-coordinated–clumsy score | -18 |
| Cc1cc(C)c(CNC(=O)c2cc(Cl)c3c(c2C)O[C@@](C)([C@H]2CC[C@H](N(C)C)CC2)O3)c(=O)[nH]1 | – | – | relapsed/refractory NHL patients | dose not given, all TEAEs, safety set | – | grade 5 atrial fibrillation incidence | 0% |
| CCN(CCO)CCCC(C)Nc1ccnc2cc(Cl)ccc12 (stereo not shown) | – | – | human, newly diagnosed glioblastoma | oral, 400 mg/dose, muscle weakness grade 1, with RT and TMZ | – | patients with adverse event | 14% |
| Fc1ccc([C@@H]2CCNC[C@H]2COc2ccc3c(c2)OCO3)cc1 | – | measured: Insomnia | healthy volunteers | oral, dose not given, given -1 h relative to LSD, together with: LSD | direction not given | List of Complaints score | 2 score |
| CC(C)CC(=O)OC[C@H]1O[C@@](C#N)(c2ccc3c(N)ncnn23)[C@H](O)[C@@H]1O | – | – | human whole blood | 5 µM, 30 min | – | remaining compound | 4.99 ± 0.393% |

| Structure (SMILES) | tested on | assay | test system | setting | scale | measurement | result |
| --- | --- | --- | --- | --- | --- | --- | --- |
| N#C[C@@H]1CC(F)(F)CN1C(=O)CNC(=O)c1ccnc2ccc(OCCCN3CCN(C(=O)CN4CCN(CC(=O)[O-])CCN(CC(=O)[O-])CC4)CC3)cc12.[18F-].[Al+3] | – | – | healthy rat, large intestine | iv, 2 h | – | tissue uptake | 1.66 ± 0.2 %ID/g |
| C[C@H]1CN(c2n[nH]c3nc(N[C@H]4CC[C@H](NS(=O)(=O)CCC(F)(F)F)CC4)ncc23)CCO1 | STK17B (Homo sapiens, UniProt O94768) | inhibitor, Kinobeads competition profiling | – | 20 µM | relative to: vehicle | relative abundance | 1.09 |
| C[C@]1(CO)Cc2ncn(-c3ccc(C#N)c(Cl)c3)c2C(=O)O1 | – | – | human | 10 mg multiple doses, fasted | – | subjects with drug-related dizziness | 11.1% |
| CCCCCCCCCCCCCCCC(=O)N[C@@H](CCC(=O)NCCCC[C@H](NC(=O)[C@H](CC(=O)O)NC(=O)[C@H](CO)NC(=O)[C@@H](NC(=O)[C@H](Cc1ccccc1)NC(=O)[C@@H](NC(=O)CNC(=O)[C@H](CCC(N)=O)NC(=O)[C@H](CO)NC(=O)[C@@H](N)Cc1c[nH]cn1)[C@@H](C)O)[C@@H](C)O)C(=O)N[C@@H](CO)C(=O)N[C@@H](CCC(=O)O)C(=O)N[C@@H](Cc1ccc(O)cc1)C(=O)N[C@@H](CC(C)C)C(=O)N[C@@H](CC(=O)O)C(=O)N[C@@H](CO)C(=O)N[C@@H](CCC(=O)O)C(=O)N[C@@H](CCCNC(=N)N)C(=O)N[C@@H](C)C(=O)N[C@@H](CCCNC(=N)N)C(=O)N[C@@H](CC(=O)O)C(=O)N[C@@H](Cc1ccccc1)C(=O)N[C@H](C(=O)N[C@@H](C)C(=O)N[C@@H](Cc1c[nH]c2ccccc12)C(=O)N[C@@H](CC(C)C)C(=O)N[C@@H](CCC(=O)O)C(=O)N[C@@H](C)C(=O)NCC(=O)NCC(=O)O)C(C)C)C(=O)O | – | measured: Dizziness | humans CrCl below 20 mL/min | subcutaneous, 100 µg single dose | – | treatment-related adverse events | 33.3% |
| COc1c(C)cnc(Cn2cc(C#CCCOP(=O)(O)O)c3c(Cl)nc(N)nc32)c1C | – | – | human, advanced solid tumours | intravenous, range over all dose levels | – | plasma half-life | 6 to 114 min |
| CCN1[C@@H](C(=O)NC23CCC(C(=O)O)(CC2)CC3)[C@H](c2cccc(Cl)c2F)[C@]2(C(=O)Nc3cc(Cl)ccc32)C12CCCCC2 | – | – | patients with advanced solid tumours | oral, all doses | – | Fatigue incidence | 14.3% |
| COc1ccc([C@@H]2CC(=O)c3c(O)cc(O)cc3O2)cc1O | – | – | Sprague-Dawley rat, male, lean, urine | oral, 100 mg/kg neohesperidin, 48 h | relative to: dose | urinary recovery | 0.471 ± 0.12% |
| CCCCCCCCCC(=O)N[C@@H](Cc1c[nH]c2ccccc12)C(=O)N[C@H](CC(N)=O)C(=O)N[C@@H](CC(=O)O)C(=O)N[C@@H]1C(=O)NCC(=O)N[C@@H](CCCN)C(=O)N[C@@H](CC(=O)O)C(=O)N[C@H](C)C(=O)N[C@@H](CC(=O)O)C(=O)NCC(=O)N[C@H](CO)C(=O)N[C@@H]([C@H](C)CC(=O)O)C(=O)N[C@@H](CC(=O)c2ccccc2N)C(=O)O[C@@H]1C | – | population PK model | human | intravenous, dose not given, two-compartment model | – | central volume | 4.79 L |
| CN1CC[C@@H](c2c(O)cc(O)c3c(=O)cc(-c4ccc(C(F)(F)F)cc4Cl)oc23)[C@@H]1CO | – | measured: Chills | AML | oral, 150 mg, intermittent dosing | – | patients with adverse event | 25% |
| CC(=O)c1c(C)c2cnc(Nc3ccc(C4CCN(CCS(C)(=O)=O)CC4)cn3)nc2n(C2CCCC2)c1=O | – | – | human, dose-escalation trial, plasma | oral, 75 mg twice daily, day 1, single dose | – | clearance | 1920 mL/min |
| CO[C@H]1C[C@@H]2CC[C@@H](C)[C@@](O)(O2)C(=O)C(=O)N2CCCC[C@H]2C(=O)O[C@H]([C@H](C)C[C@@H]2CC[C@@H](OC(=O)NCCOCCOCCOCCOCCOCCOCCOCCOCCC(=O)N3CCc4cc(Cn5nc(-c6ccc7oc(N)nc7c6)c6c(N)ncnc65)ccc4C3)[C@H](OC)C2)C[C@@H](O)[C@H](C)/C=C(\C)[C@@H](O)[C@@H](OC)C(=O)[C@H](C)C[C@H](C)/C=C/C=C/C=C/1C | – | – | patients with advanced solid tumours | intravenous, 10 mg weekly, any grade | – | maculopapular rash incidence | 12.5% |
| CC(C)[C@@H]1NC(=O)CNC(=O)[C@H](CC(N)=O)NC(=O)[C@H](CCCNC(=N)N)NC(=O)[C@H](Cc2ccc(O)cc2)NC(=O)[C@H](C(C)C)NC(=O)[C@@H](NC(=O)[C@@H](NC(=O)[C@H](CC(N)=O)NC(=O)[C@H](Cc2c[nH]c3ccccc23)NC(=O)[C@H](C)NC(=O)[C@H](Cc2ccccc2)NC(=O)CN)C(C)C)CSSC[C@@H](C(=O)N[C@@H](Cc2cnc[nH]2)C(=O)N[C@@H](CCCNC(=N)N)C(=O)N[C@@H](CCCNC(=N)N)C(=O)N[C@@H](C)C(=O)N[C@@H](CC(N)=O)C(N)=O)NC(=O)[C@H](C(C)C)NC(=O)[C@H](CCCNC(=N)N)NC1=O | – | – | ICR mouse, blood | intramammary, 5 mg/kg, day 5, 3 d dosing | – | creatinine | 84.9 ± 4.37 µmol/L |
| CC(C)c1nc(N(C)S(C)(=O)=O)nc(-c2ccc(F)cc2)c1/C=C/[C@@H](O)C[C@@H](O)CC(=O)O | – | – | healthy human subjects | oral, dose not given, study CL-0537 safety set | – | incidence of Polyuria | 0% |
| CC(C)[C@H](N)C(=O)NCCCS(=O)(=O)O | – | – | human, plasma | oral, 265 mg twice daily, 8 h, week 65 | – | plasma concentration | 52.5 ng/mL |
| COc1ccc([C@@H](O)c2cc(-c3ncnc4cc(N5CCOCC5)ccc34)c(F)cc2Cl)nn1 | – | – | patients, advanced solid tumours | oral, 300 mg twice daily, treatment-emergent, together with: avelumab | relative to: patients | vomiting incidence | 4% |
| O=c1ccc2ncc(=O)n3c2n1C[C@H]3CN1CCC(NCc2cc3c(cn2)OCCC3)CC1 | – | – | healthy human participants, urine | oral, 1500 mg, arithmetic mean, compound alone | – | amount excreted in urine (Ae) | 317 mg |
| Cn1c(-c2ccc(C(N)=O)cc2F)nnc1C(C)(C)Oc1c(F)cc(Cl)cc1F | – | – | human | oral, dose not given, single ascending dose all doses | – | number of TEAEs | 15 |
| Clc1ccc(-c2ccccc2)cc1 | – | – | Sprague-Dawley rats, female, serum | inhalation, 23 µg/rat, 2 h after exposure | – | alanine aminotransferase | 95 ± 65 U/L |
| Cc1c(COC(=O)[C@@H]2[C@H](/C=C(\Cl)C(F)(F)F)C2(C)C)cccc1-c1ccccc1 (racemic) | – | measured: CYP3A5 | human, age 5 years, recombinant human CYP3A5 | 0.1 µM | – | enzyme contribution to clearance | 1.78% |
| C[C@]1(O)C[C@@](N)(c2ccc(-c3nc4n(c3-c3ccccc3)COc3ccncc3-4)cc2)C1 | – | – | human, advanced or metastatic solid tumours | 28 mg intermittent, phase I dose escalation | – | patients with Rash TEAE | 66.7% |

Excerpt of the above:
| Structure (SMILES) | tested on | assay | test system | setting | scale | measurement | result |
| --- | --- | --- | --- | --- | --- | --- | --- |
| CCN1[C@@H](C(=O)NC23CCC(C(=O)O)(CC2)CC3)[C@H](c2cccc(Cl)c2F)[C@]2(C(=O)Nc3cc(Cl)ccc32)C12CCCCC2 | – | – | patients with advanced solid tumours | oral, all doses | – | Fatigue incidence | 14.3% |
| COc1c(C)cnc(Cn2cc(C#CCCOP(=O)(O)O)c3c(Cl)nc(N)nc32)c1C | – | – | human, advanced solid tumours | intravenous, range over all dose levels | – | plasma half-life | 6 to 114 min |
| O=c1ccc2ncc(=O)n3c2n1C[C@H]3CN1CCC(NCc2cc3c(cn2)OCCC3)CC1 | – | – | healthy human participants, urine | oral, 1500 mg, arithmetic mean, compound alone | – | amount excreted in urine (Ae) | 317 mg |
| Cc1cc(C)c(CNC(=O)c2cc(Cl)c3c(c2C)O[C@@](C)([C@H]2CC[C@H](N(C)C)CC2)O3)c(=O)[nH]1 | – | – | relapsed/refractory NHL patients | dose not given, all TEAEs, safety set | – | grade 5 atrial fibrillation incidence | 0% |
